Assay results of several laboratories.
A part holds a random share of what one study measured.
Sequence of UniProt P57058 (whole entry, looked up): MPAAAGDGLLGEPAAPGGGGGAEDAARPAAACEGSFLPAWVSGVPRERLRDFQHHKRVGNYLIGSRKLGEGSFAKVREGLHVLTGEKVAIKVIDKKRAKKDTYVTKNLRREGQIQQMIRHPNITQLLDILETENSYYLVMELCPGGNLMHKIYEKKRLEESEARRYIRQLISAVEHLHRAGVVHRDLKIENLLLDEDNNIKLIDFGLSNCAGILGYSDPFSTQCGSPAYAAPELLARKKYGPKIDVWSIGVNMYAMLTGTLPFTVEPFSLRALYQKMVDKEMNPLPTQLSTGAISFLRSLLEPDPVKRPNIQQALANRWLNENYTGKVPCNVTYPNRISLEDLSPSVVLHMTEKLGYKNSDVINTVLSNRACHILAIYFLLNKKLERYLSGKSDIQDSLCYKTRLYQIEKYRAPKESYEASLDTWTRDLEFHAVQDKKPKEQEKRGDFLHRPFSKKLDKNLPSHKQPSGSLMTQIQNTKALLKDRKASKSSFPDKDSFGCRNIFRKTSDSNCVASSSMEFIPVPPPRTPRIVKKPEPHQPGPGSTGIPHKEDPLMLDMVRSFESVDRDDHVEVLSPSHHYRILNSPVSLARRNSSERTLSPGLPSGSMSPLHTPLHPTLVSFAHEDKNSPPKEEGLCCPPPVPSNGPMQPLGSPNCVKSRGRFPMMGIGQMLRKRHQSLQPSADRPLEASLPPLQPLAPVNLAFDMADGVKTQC
Sequence of UniProt P54646 (whole entry, looked up): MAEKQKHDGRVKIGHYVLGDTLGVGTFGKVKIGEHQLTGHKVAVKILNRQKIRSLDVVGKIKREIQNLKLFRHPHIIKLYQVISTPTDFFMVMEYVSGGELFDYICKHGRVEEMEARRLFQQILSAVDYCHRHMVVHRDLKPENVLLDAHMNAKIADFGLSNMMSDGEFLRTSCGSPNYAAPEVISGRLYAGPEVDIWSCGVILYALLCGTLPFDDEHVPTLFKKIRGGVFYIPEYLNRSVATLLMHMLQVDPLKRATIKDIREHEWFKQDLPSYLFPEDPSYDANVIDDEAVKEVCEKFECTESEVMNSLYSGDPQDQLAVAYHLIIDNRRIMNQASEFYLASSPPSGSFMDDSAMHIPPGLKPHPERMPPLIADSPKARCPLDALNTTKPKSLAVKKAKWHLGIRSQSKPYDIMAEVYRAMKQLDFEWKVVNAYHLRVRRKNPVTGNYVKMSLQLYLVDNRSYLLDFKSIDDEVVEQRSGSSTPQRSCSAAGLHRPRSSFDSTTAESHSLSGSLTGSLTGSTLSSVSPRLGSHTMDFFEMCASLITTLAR
Sequence of UniProt Q16566 (whole entry, looked up): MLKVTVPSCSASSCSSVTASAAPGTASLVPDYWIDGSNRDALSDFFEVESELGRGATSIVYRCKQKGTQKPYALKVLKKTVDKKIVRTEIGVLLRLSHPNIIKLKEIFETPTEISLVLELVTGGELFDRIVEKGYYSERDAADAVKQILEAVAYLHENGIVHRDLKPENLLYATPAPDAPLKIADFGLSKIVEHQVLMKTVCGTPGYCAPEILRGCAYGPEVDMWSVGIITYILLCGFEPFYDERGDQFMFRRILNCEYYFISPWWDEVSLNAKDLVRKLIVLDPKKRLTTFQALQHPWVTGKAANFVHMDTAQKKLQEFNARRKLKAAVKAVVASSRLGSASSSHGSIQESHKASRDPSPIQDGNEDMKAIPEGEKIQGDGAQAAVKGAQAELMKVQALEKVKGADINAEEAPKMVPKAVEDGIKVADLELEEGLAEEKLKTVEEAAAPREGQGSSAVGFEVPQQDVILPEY
Sequence of UniProt Q9UBF8 (whole entry, looked up): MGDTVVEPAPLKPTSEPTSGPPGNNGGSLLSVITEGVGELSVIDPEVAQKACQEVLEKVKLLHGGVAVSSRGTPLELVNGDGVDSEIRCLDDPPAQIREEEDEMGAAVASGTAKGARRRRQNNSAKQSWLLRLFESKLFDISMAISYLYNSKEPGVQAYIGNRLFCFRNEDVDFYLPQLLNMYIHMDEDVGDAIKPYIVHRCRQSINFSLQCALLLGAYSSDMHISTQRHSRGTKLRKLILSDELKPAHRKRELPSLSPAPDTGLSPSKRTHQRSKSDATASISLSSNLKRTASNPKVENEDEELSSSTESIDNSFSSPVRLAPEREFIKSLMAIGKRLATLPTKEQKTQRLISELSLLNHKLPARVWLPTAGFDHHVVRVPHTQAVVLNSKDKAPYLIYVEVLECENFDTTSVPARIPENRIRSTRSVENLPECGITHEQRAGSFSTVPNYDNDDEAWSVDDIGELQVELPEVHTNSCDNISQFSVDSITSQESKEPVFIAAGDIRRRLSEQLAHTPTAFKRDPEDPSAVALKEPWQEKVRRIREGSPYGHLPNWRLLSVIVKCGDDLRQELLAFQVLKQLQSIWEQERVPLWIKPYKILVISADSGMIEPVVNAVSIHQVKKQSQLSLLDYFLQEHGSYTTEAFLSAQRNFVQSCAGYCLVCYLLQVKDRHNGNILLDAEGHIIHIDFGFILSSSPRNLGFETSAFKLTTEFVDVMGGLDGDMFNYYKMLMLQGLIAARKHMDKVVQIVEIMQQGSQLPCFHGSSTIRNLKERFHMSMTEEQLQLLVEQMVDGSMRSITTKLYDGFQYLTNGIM
Sequence of UniProt Q8IWQ3 (whole entry, looked up): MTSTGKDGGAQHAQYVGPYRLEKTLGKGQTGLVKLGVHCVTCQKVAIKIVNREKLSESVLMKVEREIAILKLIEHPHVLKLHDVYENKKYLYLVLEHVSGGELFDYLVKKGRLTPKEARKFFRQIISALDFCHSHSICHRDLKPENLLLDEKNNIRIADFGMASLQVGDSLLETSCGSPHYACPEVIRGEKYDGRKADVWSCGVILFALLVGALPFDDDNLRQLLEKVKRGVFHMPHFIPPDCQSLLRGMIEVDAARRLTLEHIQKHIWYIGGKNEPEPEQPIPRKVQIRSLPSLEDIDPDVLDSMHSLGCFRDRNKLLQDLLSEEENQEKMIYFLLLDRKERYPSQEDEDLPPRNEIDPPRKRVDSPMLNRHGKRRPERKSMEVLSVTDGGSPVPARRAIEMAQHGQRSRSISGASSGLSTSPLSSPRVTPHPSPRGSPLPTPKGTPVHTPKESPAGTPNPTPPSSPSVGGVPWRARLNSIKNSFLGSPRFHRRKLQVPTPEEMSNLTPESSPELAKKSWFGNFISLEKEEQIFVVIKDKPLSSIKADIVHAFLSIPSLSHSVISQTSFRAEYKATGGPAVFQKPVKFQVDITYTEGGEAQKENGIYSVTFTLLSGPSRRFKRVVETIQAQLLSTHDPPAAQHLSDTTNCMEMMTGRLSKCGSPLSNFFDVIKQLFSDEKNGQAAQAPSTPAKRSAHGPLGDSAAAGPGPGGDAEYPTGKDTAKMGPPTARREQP
Sequence of UniProt Q9Y6M4 (whole entry, looked up): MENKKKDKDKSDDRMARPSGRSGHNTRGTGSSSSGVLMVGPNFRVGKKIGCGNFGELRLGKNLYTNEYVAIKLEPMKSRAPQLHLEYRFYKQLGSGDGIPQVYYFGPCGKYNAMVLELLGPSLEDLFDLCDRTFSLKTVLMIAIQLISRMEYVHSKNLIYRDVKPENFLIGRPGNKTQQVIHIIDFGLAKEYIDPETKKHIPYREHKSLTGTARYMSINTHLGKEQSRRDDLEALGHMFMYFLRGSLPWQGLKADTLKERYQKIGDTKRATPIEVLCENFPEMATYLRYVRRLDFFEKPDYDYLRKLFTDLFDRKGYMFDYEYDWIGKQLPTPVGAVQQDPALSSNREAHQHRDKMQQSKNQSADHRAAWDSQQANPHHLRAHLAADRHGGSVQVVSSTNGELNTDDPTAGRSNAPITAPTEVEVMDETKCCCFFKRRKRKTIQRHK

Sample 1
Compound: CO[C@@H](C)c1c(Nc2ccc([C@H](N(C)C(=O)C3CCS(=O)(=O)CC3)C(F)(F)F)cc2)cnc2cc(Cl)nn12
Effect on: cell-free assay
Method: competition with immobilised ligand
Tested at: 1 µM
Quantity: remaining binding
Hormonally up-regulated neu tumor-associated kinase (HUNK, Homo sapiens, UniProt P57058): 100%
Casein kinase I isoform gamma-3 (CSNK1G3, Homo sapiens, UniProt Q9Y6M4): 72%
Serine/threonine-protein kinase B-raf (BRAF, Homo sapiens, UniProt P15056, V600E): 96%
Testis-specific serine/threonine-protein kinase 3 (TSSK3, Homo sapiens, UniProt Q96PN8): 81%
Fibroblast growth factor receptor 4 (FGFR4, Homo sapiens, UniProt P22455): 85%
Calcium/calmodulin-dependent protein kinase type II subunit gamma (CAMK2G, Homo sapiens, UniProt Q13555): 77%
Mast/stem cell growth factor receptor Kit (KIT, Homo sapiens, UniProt P10721, D816H): 100%
Cyclin-dependent kinase 11B (CDK11B, Homo sapiens, UniProt P21127): 88%
Receptor-interacting serine/threonine-protein kinase 1 (RIPK1, Homo sapiens, UniProt Q13546): 91%
eIF-2-alpha kinase GCN2, C-terminal kinase domain (EIF2AK4, Homo sapiens, UniProt Q9P2K8, S808G): 78%
Epidermal growth factor receptor (EGFR, Homo sapiens, UniProt P00533, del747-752/P753S): 100%
Serine/threonine-protein kinase DCLK3 (DCLK3, Homo sapiens, UniProt Q9C098): 100%
Calcium/calmodulin-dependent protein kinase type IV (CAMK4, Homo sapiens, UniProt Q16566): 100%
Phosphatidylinositol 4-kinase beta (PI4KB, Homo sapiens, UniProt Q9UBF8): 82%
Phosphatidylinositol 4,5-bisphosphate 3-kinase catalytic subunit delta isoform (PIK3CD, Homo sapiens, UniProt O00329): 98%
Phosphatidylinositol 4,5-bisphosphate 3-kinase catalytic subunit beta isoform (PIK3CB, Homo sapiens, UniProt P42338): 65%
5'-AMP-activated protein kinase catalytic subunit alpha-2 (PRKAA2, Homo sapiens, UniProt P54646): 100%
Serine/threonine-protein kinase BRSK2 (BRSK2, Homo sapiens, UniProt Q8IWQ3): 79%
Leucine-rich repeat serine/threonine-protein kinase 2 (LRRK2, Homo sapiens, UniProt Q5S007, G2019S): 100%
Ephrin type-A receptor 4 (EPHA4, Homo sapiens, UniProt P54764): 83%
Calcium/calmodulin-dependent protein kinase type 1G (CAMK1G, Homo sapiens, UniProt Q96NX5): 100%
Macrophage-stimulating protein receptor (MST1R, Homo sapiens, UniProt Q04912): 100%

Sample 2
Target: Bromodomain-containing protein 4, BD1 (BRD4, Homo sapiens, UniProt O60885)
Tested at: 50 µM
Quantity: inhibition
N#CC[C@H](C1CCCC1)n1cc(-c2ncnc3[nH]ccc23)cn1: -1%
Cc1cc(Nc2cc(CN3CCOCC3)c3nc(C)c(Cc4ccc(Cl)cc4F)n3n2)n[nH]1: 18%
CNc1nc(-c2ccc3c(N)n[nH]c3c2)cc(N2C[C@@H](C(=O)NC3CCCCC3)CC[C@H]2C)n1: 92.4%
COc1cc(F)c(F)c(Nc2ccc(I)cc2F)c1NS(=O)(=O)C1(C[C@H](O)CO)CC1: 0.2%
CCN(CC)CCNC(=O)c1c(C)[nH]c(/C=C2\C(=O)Nc3ccc(F)cc32)c1C: 66.5%
Cc1cc(C(=O)NOCCO)c(Nc2ccc(I)cc2F)n(C)c1=O: 10.7%
COCCCOc1ccnc(C[S+]([O-])c2nc3ccccc3[nH]2)c1C (centres unmarked): 52.8%
CCOc1cc2ncc(C#N)c(Nc3ccc(OCc4ccccn4)c(Cl)c3)c2cc1NC(=O)/C=C/CN(C)C: 34.4%
C[C@]1(O)C[C@@H](c2nc(-c3ccc4ccc(-c5ccccc5)nc4c3)c3c(N)nccn32)C1: 41.5%
CNC(=O)c1cccc(-c2ccc3c(N4CCOC[C@@H]4C)nc(N4CCOC[C@@H]4C)nc3n2)c1: 35%
Nc1nccc(-c2c(-c3ccc(F)cc3)ncn2C2CCNCC2)n1: 16.8%
Cc1cn(-c2cc(NC(=O)c3ccc(C)c(Nc4nccc(-c5cccnc5)n4)c3)cc(C(F)(F)F)c2)cn1: 37.8%
CN(C)C[C@@H]1CCn2cc(c3ccccc32)C2=C(C(=O)NC2=O)c2cn(c3ccccc23)CCO1: 95.3%

Sample 3
Target: Non-receptor tyrosine-protein kinase TYK2 (TYK2, Homo sapiens, UniProt P29597)
Sequence of UniProt P29597 (whole entry, looked up): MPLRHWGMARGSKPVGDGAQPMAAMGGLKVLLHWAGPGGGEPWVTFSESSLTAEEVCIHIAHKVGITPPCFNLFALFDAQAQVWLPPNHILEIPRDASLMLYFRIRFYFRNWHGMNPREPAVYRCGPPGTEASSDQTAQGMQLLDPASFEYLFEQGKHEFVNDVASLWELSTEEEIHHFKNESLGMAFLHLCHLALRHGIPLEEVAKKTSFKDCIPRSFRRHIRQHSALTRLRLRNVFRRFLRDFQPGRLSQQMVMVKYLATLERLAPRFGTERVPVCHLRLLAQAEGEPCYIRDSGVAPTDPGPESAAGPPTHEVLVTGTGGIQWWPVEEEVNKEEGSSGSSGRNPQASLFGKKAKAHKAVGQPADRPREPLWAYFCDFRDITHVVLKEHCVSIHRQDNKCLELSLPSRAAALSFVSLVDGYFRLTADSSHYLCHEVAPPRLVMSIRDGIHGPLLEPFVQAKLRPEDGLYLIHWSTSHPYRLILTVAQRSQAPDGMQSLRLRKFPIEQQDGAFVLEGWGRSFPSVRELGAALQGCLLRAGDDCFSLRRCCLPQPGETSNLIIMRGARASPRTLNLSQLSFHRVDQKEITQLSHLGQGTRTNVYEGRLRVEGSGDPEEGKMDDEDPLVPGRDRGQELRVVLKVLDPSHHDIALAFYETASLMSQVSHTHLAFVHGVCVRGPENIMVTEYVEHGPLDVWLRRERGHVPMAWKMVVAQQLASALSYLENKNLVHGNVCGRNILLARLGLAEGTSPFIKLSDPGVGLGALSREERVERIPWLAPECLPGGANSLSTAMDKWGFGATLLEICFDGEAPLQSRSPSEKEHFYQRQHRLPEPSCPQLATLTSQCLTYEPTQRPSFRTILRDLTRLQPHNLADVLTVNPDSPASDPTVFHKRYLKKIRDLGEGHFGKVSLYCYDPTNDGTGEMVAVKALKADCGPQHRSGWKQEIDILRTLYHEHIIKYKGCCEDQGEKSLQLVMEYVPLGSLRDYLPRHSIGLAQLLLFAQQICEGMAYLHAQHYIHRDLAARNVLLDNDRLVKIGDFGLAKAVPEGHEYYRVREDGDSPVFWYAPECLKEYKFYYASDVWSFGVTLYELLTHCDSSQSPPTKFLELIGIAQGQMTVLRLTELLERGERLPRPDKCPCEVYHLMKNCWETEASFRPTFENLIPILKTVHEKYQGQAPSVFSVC
Effect on: enzyme activity
Mode: inhibitor
Tested at: 0.5 µM
Baseline: control
Quantity: remaining activity
O=c1cc(N2CCOCC2)oc2c(-c3ccccc3)cccc12: 103%
c1ccc(-c2n[nH]c3c2oc2ccccc23)cc1: 89.2%
O=C(c1cc2cc(O)ccc2[nH]1)c1cc2cc(O)ccc2[nH]1: 66.7%
Cc1cc(Nc2cc(N3CCN(C)CC3)nc(Sc3ccc(NC(=O)C4CC4)cc3)n2)[nH]n1: 67.7%
O=Nc1c(-c2c(O)[nH]c3cc(Br)ccc23)[nH]c2ccccc12: 25.6%
CCCNC(=O)Nc1ccc(Oc2ncnc3cc(OC)c(OC)cc23)cc1Cl: 95.2%
Cc1ccc(S(=O)(=O)/C=C/C#N)cc1: 82.8%
O=C1Cc2c([nH]c3ccc(Br)cc23)-c2ccccc2N1: 81.7%
O=C1Nc2ccccc2/C1=C\c1c(Cl)[nH]c2ccccc12: 110%
CCCCc1c(-c2ccc(OC)cc2)[nH]c2nccnc12: 38.8%
c1ccc2c(-c3ccncc3)c[nH]c2c1: 101%
CN(C)S(=O)(=O)c1ccc2c(c1)/C(=C/c1cc3c([nH]1)CCCC3)C(=O)N2: 11.4%
O=C1NC(=O)c2c1c1c3ccccc3[nH]c1n1cncc21: 85.4%
COc1ccc2c(c1)c(C1=C(c3c[nH]c4ccccc34)C(=O)NC1=O)cn2CCCN(C)C: 126%
CN1CCN(c2ccc3nc(-c4c(N)c5c(F)cccc5[nH]c4=O)[nH]c3c2)CC1: 59.4%
O=C1NC(=O)c2c1c1c3ccccc3[nH]c1c1[nH]c3cc(Br)ccc3c21: 81.1%
O=C1Nc2ccc(Br)cc2/C1=C/c1cc2c([nH]1)CCCC2: 86%
COc1ccc(COc2ccc(Cc3cnc(N)nc3N)cc2OC)cc1: 97.6%
COc1cccc(-c2cc(=O)c3ccccc3o2)c1N: 92.7%
N#Cc1cnc2cnc(NCc3cccnc3)cc2c1Nc1ccc(F)c(Cl)c1: 103%

Sample 4
Species: human
Matrix: microsomes or S9
Tested at: 2 µM
Time: 0.5 h
Quantity: remaining compound
COC(=O)CC(c1cc(Cl)c2c(c1)OCO2)c1c(O)cc(C)[nH]c1=O (centres unmarked): 0.0338%
CC(C)(C)OC(=O)NCCC(=O)Nc1nc2cc(F)ccc2s1: > 99%
O=c1ccc(-n2ccnc2)nn1CC(O)COc1ccc(Oc2ccccc2)cc1 (centres unmarked): 53.3%
CC(C)c1ccc(NC(=O)CCNS(=O)(=O)c2cc(Br)cnc2N)cc1: 1.08%
Cc1ccc(/C(Br)=C/CN(C)C)cc1: 12.1%
OCCCNc1nc(N2CCN(c3ccccc3F)CC2)nc2ccccc12: 52.7%
CC(C)Nc1ncnc2onc(-c3cc(F)cc(F)c3)c12: 65.3%
CCOC(=O)c1cnn(-c2ccc(C(=O)O)cc2)c1N: 16.2%
Cc1cc2cc(CCNC(=O)CC(C)(C)C)c(=O)[nH]c2cc1C: 87.1%
O=C(Cn1cnc2c(nnn2-c2cccc(Cl)c2)c1=O)N1CCCc2ccccc21: 27.2%

Excerpt of the above (sample 2):
COCCCOc1ccnc(C[S+]([O-])c2nc3ccccc3[nH]2)c1C (centres unmarked): 52.8%
Nc1nccc(-c2c(-c3ccc(F)cc3)ncn2C2CCNCC2)n1: 16.8%
COc1cc(F)c(F)c(Nc2ccc(I)cc2F)c1NS(=O)(=O)C1(C[C@H](O)CO)CC1: 0.2%
CCOc1cc2ncc(C#N)c(Nc3ccc(OCc4ccccn4)c(Cl)c3)c2cc1NC(=O)/C=C/CN(C)C: 34.4%
CNc1nc(-c2ccc3c(N)n[nH]c3c2)cc(N2C[C@@H](C(=O)NC3CCCCC3)CC[C@H]2C)n1: 92.4%
Cc1cc(Nc2cc(CN3CCOCC3)c3nc(C)c(Cc4ccc(Cl)cc4F)n3n2)n[nH]1: 18%
CCN(CC)CCNC(=O)c1c(C)[nH]c(/C=C2\C(=O)Nc3ccc(F)cc32)c1C: 66.5%
C[C@]1(O)C[C@@H](c2nc(-c3ccc4ccc(-c5ccccc5)nc4c3)c3c(N)nccn32)C1: 41.5%
N#CC[C@H](C1CCCC1)n1cc(-c2ncnc3[nH]ccc23)cn1: -1%
CNC(=O)c1cccc(-c2ccc3c(N4CCOC[C@@H]4C)nc(N4CCOC[C@@H]4C)nc3n2)c1: 35%
